# Published values of several laboratories.
# Every numbered part comes from another study and shows a few of its results, in no order. “And” joins repeats or separate records; there may be more than shown.

# Sample 1
# Structure (SMILES): Cn1cc(-c2cccc(CN3CCC4(CC3)COc3c4ccc4c3CN([C@H]3CCC(=O)NC3=O)C4=O)c2)cn1
# Target: Voltage-gated inwardly rectifying potassium channel KCNH2 (KCNH2, Homo sapiens, UniProt Q12809)
# Chain of UniProt Q12809 (whole entry, looked up): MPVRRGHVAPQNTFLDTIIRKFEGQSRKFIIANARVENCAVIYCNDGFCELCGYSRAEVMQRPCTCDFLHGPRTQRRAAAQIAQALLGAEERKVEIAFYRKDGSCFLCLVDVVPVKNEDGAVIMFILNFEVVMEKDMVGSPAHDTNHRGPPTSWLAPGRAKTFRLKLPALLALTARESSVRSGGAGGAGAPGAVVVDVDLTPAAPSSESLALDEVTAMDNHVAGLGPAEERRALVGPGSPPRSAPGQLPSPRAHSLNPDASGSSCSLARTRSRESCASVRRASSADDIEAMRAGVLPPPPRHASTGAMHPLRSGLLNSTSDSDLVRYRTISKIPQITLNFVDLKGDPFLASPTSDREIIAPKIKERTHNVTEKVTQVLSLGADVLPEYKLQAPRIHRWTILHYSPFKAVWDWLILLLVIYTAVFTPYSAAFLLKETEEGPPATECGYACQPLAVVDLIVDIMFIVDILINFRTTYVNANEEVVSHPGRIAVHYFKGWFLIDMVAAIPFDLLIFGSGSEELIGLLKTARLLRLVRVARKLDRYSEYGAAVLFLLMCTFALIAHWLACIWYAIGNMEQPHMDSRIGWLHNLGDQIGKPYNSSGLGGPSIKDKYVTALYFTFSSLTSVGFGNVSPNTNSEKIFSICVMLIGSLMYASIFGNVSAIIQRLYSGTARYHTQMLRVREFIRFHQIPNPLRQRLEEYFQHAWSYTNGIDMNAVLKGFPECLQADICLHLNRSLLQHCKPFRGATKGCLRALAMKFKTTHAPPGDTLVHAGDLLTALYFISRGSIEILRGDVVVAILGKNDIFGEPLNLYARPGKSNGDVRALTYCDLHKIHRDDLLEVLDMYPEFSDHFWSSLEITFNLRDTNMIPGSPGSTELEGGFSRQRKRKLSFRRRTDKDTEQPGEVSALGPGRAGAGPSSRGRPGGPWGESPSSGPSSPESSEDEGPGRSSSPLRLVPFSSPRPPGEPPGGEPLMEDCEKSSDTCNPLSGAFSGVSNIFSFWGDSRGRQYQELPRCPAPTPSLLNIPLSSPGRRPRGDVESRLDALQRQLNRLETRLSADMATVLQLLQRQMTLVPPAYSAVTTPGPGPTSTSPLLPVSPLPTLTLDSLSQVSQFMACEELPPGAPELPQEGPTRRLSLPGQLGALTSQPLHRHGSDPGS
# Technique: manual patch clamp
effect on,mode,concentration,notes,inhibition
potassium current,inhibitor,88.62 µM,mean measured concentration,69.2%
hERG current,,3.00 µM,,7.66% and 8.22%
potassium current,inhibitor,32.25 µM,32.25,36.8% and 50%
potassium current,inhibitor,100 µM,"nominal concentration, cloudy solution",69.2%
hERG current,,1.28 µM,,3.19%
hERG current,,10.00 µM,,16.5% and 21.2%
hERG current,,9.95 µM,,18.9%
hERG current,,1.00 µM,,6% and 0.38%
hERG current,,3.40 µM,,7.94%
hERG current,,30.00 µM,,36.8% and 50%

# Sample 2
# Target: Membrane-associated tyrosine- and threonine-specific cdc2-inhibitory kinase (PKMYT1, Homo sapiens, UniProt Q99640)
# Chain of UniProt Q99640 (whole entry, looked up): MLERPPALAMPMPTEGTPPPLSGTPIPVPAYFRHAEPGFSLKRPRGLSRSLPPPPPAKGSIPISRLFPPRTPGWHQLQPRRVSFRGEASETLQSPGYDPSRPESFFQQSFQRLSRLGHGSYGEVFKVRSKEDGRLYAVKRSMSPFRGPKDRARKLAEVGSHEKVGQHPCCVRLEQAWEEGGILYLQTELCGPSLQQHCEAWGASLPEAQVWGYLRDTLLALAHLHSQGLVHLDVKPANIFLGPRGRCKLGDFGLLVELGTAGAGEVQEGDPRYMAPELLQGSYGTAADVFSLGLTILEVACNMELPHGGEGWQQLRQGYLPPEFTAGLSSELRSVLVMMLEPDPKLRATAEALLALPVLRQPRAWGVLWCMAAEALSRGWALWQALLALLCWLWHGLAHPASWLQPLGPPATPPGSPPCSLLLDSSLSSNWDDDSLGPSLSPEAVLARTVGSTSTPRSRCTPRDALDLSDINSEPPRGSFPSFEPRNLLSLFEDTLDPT
# Effect on: binding
# Technique: HTRF
# Concentration: 0.46 nM
Compound,inhibition
Cc1ccc(O)c(C)c1-c1cnc2[nH]c(-c3cnc(N4CCC(CN5CCN(c6ccc7c8c(cccc68)C(=O)N7C6CCC(=O)NC6=O)CC5)CC4)nc3)cc2c1C#N (racemic),-0.6% and -2.26%
Cc1ccc(O)c(C)c1-c1cnc2[nH]c(-c3cnc(N4CCC(CN5CCN(c6ccc(C(=O)NC7CCC(=O)NC7=O)c(F)c6)CC5)CC4)nc3)cc2c1C#N (racemic),-1.68% and -1.36%
Cc1ccc(O)c(C)c1-c1cnc2[nH]c(-c3cnc(N4CCC(CN5CCN(c6ccc(N7CCC(=O)NC7=O)cc6F)CC5)CC4)nc3)cc2c1C#N,3.23% and 2.02%

# Sample 3
# Structure (SMILES): C#CCN1C(=O)C(O)(C(=O)O)Oc2cc(F)ccc21 (centres unmarked)
# Organism: Arabidopsis thaliana
# Strain: Col-0
concentration,notes,hypocotyl length
25 µg/mL,"seed germination, repetition mean",1.43 cm
12.5 µg/mL,"seed germination, single repetition",1.72 cm and 1.65 cm and 1.67 cm and 1.63 cm and 1.83 cm
100 µg/mL,"seed germination, single repetition",0.08 cm and 0.1 cm and 0.12 cm and 0.09 cm
6.25 µg/mL,"seed germination, single repetition",1.95 cm and 2.06 cm and 1.93 cm and 1.89 cm

# Sample 4
# Structure (SMILES): CCCNC(=O)COc1ccc(Br)c(C)c1
# Target: Sodium-dependent neutral amino acid transporter B(0)AT1 (SLC6A19, Homo sapiens, UniProt Q695T7)
# Chain of UniProt Q695T7 (whole entry, looked up): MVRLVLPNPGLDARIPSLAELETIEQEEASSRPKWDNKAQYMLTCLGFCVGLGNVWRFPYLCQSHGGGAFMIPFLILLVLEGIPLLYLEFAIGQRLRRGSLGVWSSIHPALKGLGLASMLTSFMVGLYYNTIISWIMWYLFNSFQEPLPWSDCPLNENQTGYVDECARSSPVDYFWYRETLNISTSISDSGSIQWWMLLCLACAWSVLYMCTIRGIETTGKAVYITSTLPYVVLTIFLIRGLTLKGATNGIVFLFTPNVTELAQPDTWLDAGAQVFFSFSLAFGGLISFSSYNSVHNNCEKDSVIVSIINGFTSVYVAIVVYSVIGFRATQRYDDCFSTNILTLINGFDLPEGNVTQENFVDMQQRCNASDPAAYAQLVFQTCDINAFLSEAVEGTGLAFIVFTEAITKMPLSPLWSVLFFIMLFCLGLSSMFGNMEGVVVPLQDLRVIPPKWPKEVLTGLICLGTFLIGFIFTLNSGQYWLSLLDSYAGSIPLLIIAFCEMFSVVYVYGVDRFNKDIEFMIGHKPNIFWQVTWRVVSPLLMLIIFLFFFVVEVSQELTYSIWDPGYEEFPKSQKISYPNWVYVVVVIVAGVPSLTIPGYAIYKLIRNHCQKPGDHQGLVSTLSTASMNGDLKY
# Mode: inhibitor
# Cells: CHO-BC cells
# Notes: unit not given
# Reference: uninhibited cells
technique,concentration,time,temperature,added,remaining transport activity
FLIPR membrane potential,0.03 µM,,,,0.77
FLIPR membrane potential,0.003 µM,,,,1.05
L-[14C]leucine uptake,0.03 µM,6 min,37 °C,"GPNA 3 mM, JPH203 3 µM",0.867

# A few entries again (sample 1):
effect on,mode,concentration,notes,inhibition
hERG current,,3.00 µM,,7.66% and 8.22%
potassium current,inhibitor,32.25 µM,32.25,36.8% and 50%
potassium current,inhibitor,100 µM,"nominal concentration, cloudy solution",69.2%
